Published values pooled from the literature.
Each line is one published result; not all experiments were run side by side. Values joined by “and” are separate records of one study, mostly repeats; a detail may differ. ± marks the error that the study gave. ≈ marks a conversion by molar mass, not a printed value.

SMILES | assay | system | conditions | scale | quantity | value
CCCC[C@@H]1NC(=O)[C@H](Cc2ccc(O)cc2)NC(=O)[C@@H]2CCCN2C(=O)[C@H](CC(=O)O)NC(=O)[C@H](C)NC(=O)[C@H](Cc2ccccc2)NC(=O)[C@@H]2CSCCC(=O)N3CN(CN(C3)C(=O)CCSC[C@@H](C(=O)N[C@@H](C)C(N)=O)NC1=O)C(=O)CCSC[C@H](NC(C)=O)C(=O)N[C@@H](CC(C)(C)C)C(=O)N1CCC[C@H]1C(=O)N[C@@H](CCC(=O)O)C(=O)N[C@H](CCCCNC(=O)CCc1cn(CCOCCOCCOCCN(CCOCCOCCOCCC(=O)N[C@H]3CSCCC(=O)N4CN5CN(C4)C(=O)CCSC[C@H](NC(=O)[C@@H](CC(=O)O)NC(=O)[C@H](Cc4cccc6ccccc46)NC(=O)[C@@H]4CCCN4C3=O)C(=O)N[C@@H](CCSC)C(=O)N[C@@H](CCCCNC(=N)N)C(=O)N[C@@H](CC(=O)O)C(=O)N[C@@H](Cc3c[nH]c4ccccc34)C(=O)N[C@@H](CO)C(=O)N[C@@H]([C@@H](C)O)C(=O)N3CCC[C@H]3C(=O)N3C[C@H](O)C[C@H]3C(=O)N[C@@H](Cc3c[nH]c4ccccc34)C(=O)N[C@H](C(N)=O)CSCCC5=O)CCOCCOCCOCCn3cc(CCC(=O)NCCCC[C@H]4NC(=O)[C@H](CCC(=O)O)NC(=O)[C@@H]5CCCN5C(=O)[C@H](CC(C)(C)C)NC(=O)[C@@H](NC(C)=O)CSCCC(=O)N5CN6CN(C5)C(=O)CCSC[C@H](NC(=O)[C@H](Cc5ccc(O)cc5)NC(=O)[C@@H]5CCCN5C4=O)C(=O)N[C@@H](Cc4ccccc4)C(=O)N[C@@H](C)C(=O)N[C@@H](CC(=O)O)C(=O)N4CCC[C@H]4C(=O)N[C@@H](Cc4ccc(O)cc4)C(=O)N[C@@H](CCCC)C(=O)N[C@H](C(=O)N[C@@H](C)C(N)=O)CSCCC6=O)nn3)nn1)C(=O)N1CCC[C@H]1C(=O)N[C@@H](Cc1ccc(O)cc1)C(=O)N2 |  | mouse, MC38-Nectin-4 syngeneic tumour | 1.5 to 5 mg/kg twice weekly |  | tumour-free mice | 80 to 100%
COc1c2c(cc3oc(CO)cc(=O)c13)O[C@H](C(C)(C)O)C2 | analgesic effect | Kunming mouse, female | oral, 1 mg/kg, 0 h, 55 °C, before dosing, 30 s cut-off |  | hot plate latency | 8.38 ± 0.89 s
OCc1cnn(-c2ccccc2)n1 | aPTT | human plasma | 1 µM |  | clotting time | 51.4 ± 0.7 s
C=C(c1ncc(C(=O)O)cn1)c1cc2c(cc1C)C(C)(C)CCC2(C)C | RNA sequencing, refers to: Aurkb mRNA | rat, brain | dose not given, 24 h, single dose | relative to: vehicle | log2 fold change | 0.34
CC[C@H](C)[C@H](NC(=O)[C@H](CC(N)=O)NC(=O)[C@H](CC(N)=O)NC(=O)[C@H](CCCNC(=N)N)NC(=O)[C@H](CC(N)=O)NC(=O)[C@H](CCCNC(=N)N)NC(=O)[C@H](CCCCN)NC(=O)[C@@H](NC(=O)[C@H](CC(N)=O)NC(=O)[C@H](CCSC)NC(=O)[C@H](CC(C)C)NC(=O)[C@H](Cc1c[nH]c2ccccc12)NC(=O)[C@H](CCC(N)=O)NC(=O)[C@@H](NC(=O)[C@H](Cc1ccccc1)NC(=O)[C@H](CC(=O)O)NC(=O)[C@H](CCC(N)=O)NC(=O)[C@H](C)NC(=O)[C@H](CCCNC(=N)N)NC(=O)[C@H](CCCNC(=N)N)NC(=O)[C@H](CO)NC(=O)[C@H](CC(=O)O)NC(=O)[C@H](CC(C)C)NC(=O)[C@H](Cc1ccc(O)cc1)NC(=O)[C@H](CCCCN)NC(=O)[C@H](CO)NC(=O)[C@H](Cc1ccc(O)cc1)NC(=O)[C@H](CC(=O)O)NC(=O)[C@H](CO)NC(=O)[C@@H](NC(=O)[C@H](Cc1ccccc1)NC(=O)[C@@H](NC(=O)CNC(=O)[C@H](CCC(=O)O)NC(=O)[C@@H](CO)NC(=O)[C@@H](N)Cc1c[nH]cn1)[C@@H](C)O)[C@@H](C)O)C(C)C)[C@@H](C)O)C(=O)N[C@@H](C)C(=O)N[C@@H](CSCC(=O)NCCOCCOCCOCCOCCC(=O)O[C@H]1CC[C@@]2(C)C(=CC[C@H]3[C@@H]4CC[C@H]([C@H](C)CCCC(C)C)[C@@]4(C)CC[C@@H]32)C1)C(N)=O |  | diet-induced obese mice, plasma | subcutaneous, 1.9 µmol/kg, 14 days, chronic dosing |  | free fatty acid level | 0.3 mM
COc1ccc(C2CC(c3ccc(C)cc3)=Nc3ccccc3S2)cc1 (centres unmarked) |  | Wistar rat, STZ-induced diabetes | oral, 20 mg/kg once daily, day 28 |  | blood glucose | 105 mg/dL
CC(C)(CCCC/C=C/CCCCCC(C)(C)C(=O)O)C(=O)O | VLDL-TG secretion | C57BL/6J mice | 100 mg/kg, added: tyloxapol 600 mg/kg |  | cholesterol AUC(0-4 h) decrease | 58.9%
CCCCCCCCCCCCCCCC(=O)OCC(CSC[C@H](N)C(=O)N[C@@H](CO)C(=O)N[C@@H](CCCCN)C(=O)N[C@@H](CCCCN)C(=O)N[C@@H](CCCCN)C(=O)N[C@@H](CCCCN)C(=O)NCCCCCC(=O)N[C@@H](CCCCN)C(=O)N[C@@H](CC(C)C)C(=O)N[C@H](C(=O)N[C@@H](Cc1ccccc1)C(=O)N[C@@H](Cc1ccccc1)C(=O)N[C@@H](Cc1ccc2ccccc2c1)C(=O)O)C(C)C)OC(=O)CCCCCCCCCCCCCCC (some centres unmarked) |  | APP/PS1 mouse, 13 months | intracortical, 100 µM, 300 nL, 5 d | relative to: injected over adjacent side | Iba1 staining ratio | 3.09 ± 0.91
CCn1nc(Cl)c2c1-c1cnc(N)c(c1)O[C@H](C)c1cc(F)ccc1-c1nn(C)cc1C2 | RECIST | human | oral, 150 mg once daily, 6 weeks |  | tumour size change | -82%
COc1ccc(-n2cc(CO)nn2)cc1 | prothrombin time | human plasma | 10 µM |  | clotting time | 15.7 ± 2 s
CNc1oc(-c2cccc3ccccc23)nc1C#N |  | mouse islets | 10 µM, 4 h, added: proinflammatory cytokines |  | 12-HETE release | decreased
CSCC[C@@H](NC(=O)[C@@H](CC(=O)O)NC(=O)[C@H](NC(=O)[C@@H](Cc1ccc(O)cc1)NC(=O)[C@@H](CC(N)=O)NC(=O)[C@H](N)CCCNC(=N)N)C(C)C)C(=O)N[C@H](Cc1ccccc1)C(=O)N[C@H](CCCCN)C(=O)O |  | C57BL/6 mice laser CNV | intravitreal, 20 ng or 2 µg, 10 days | relative to: PBS | CNV volume | no effect
C=C(c1cc(F)c(C(=O)O)c(F)c1)c1cc2c(cc1C)C(C)(C)CCC2(C)C | RNA sequencing, refers to: Dlx2 mRNA | rat, brain | dose not given, 24 h, single dose | relative to: vehicle | log2 fold change | 0.92
C[C@H]1CN(C(=O)c2cn(-c3ccnc(N)n3)c3cc(C#CC4(O)CCCCC4)ccc23)CCN1 |  | B16-BL6, mice, lung metastasis model | intravenous, 50 mg/kg daily |  | mice with lung metastases | 9.2%
CC(C)[C@H](NC(=O)CN)C(=O)N[C@@H](CCCCN)C(=O)NCC(=O)N[C@@H](CC(=O)O)C(=O)N[C@@H](CCCCN)C(=O)NCC(=O)N[C@@H](CC(N)=O)C(=O)N1CCC[C@H]1C(=O)NCC(=O)N[C@@H](Cc1c[nH]c2ccccc12)C(=O)N1CCC[C@H]1C(=O)NCC(=O)N[C@@H](C)C(=O)N1CCC[C@H]1C(=O)O |  | K1735 M4 melanoma, mouse | up to 500 µg/mL, soluble peptide, added: type I collagen coating 5 µg/mL |  | cell adhesion | no effect
CC[C@H]1[C@@H](O)[C@@H]2[C@H](CC[C@]3(C)[C@@H]([C@H](C)CCOS(=O)(=O)[O-])CC[C@@H]23)[C@@]2(C)CC[C@@H](O)C[C@@H]12.[Na+] | histology | ob/ob NASH mouse model, liver | oral, 3 mg/kg once daily, 8 weeks | direction not given | NAFLD activity score | 5.9 ± 0.2
Nn1c(S)nnc1CCN(c1ccc(Cl)cc1)S(=O)(=O)c1ccccc1 | paw oedema | rat carrageenan oedema | dose not given, 6 h |  | inhibition | 67.6%
COc1cc(Cn2ccc3cc(C(=O)NCC45CC6CC(CC(C6)C4)C5)ccc32)ccc1C(=O)NO | immunohistochemistry | 5xFAD mouse, brain | intraperitoneal, 10 mg/kg once daily, 2 months | relative to: vehicle | ASC aggresome size | decreased
O=[N+]([O-])c1cccc(S(=O)(=O)NC[C@@H](O)[C@@H]2CCc3cc(F)ccc3O2)c1 |  | rat, carrageenan paw oedema | oral, 100 mg/kg, 1 h after carrageenan |  | paw volume | 0.65 ± 0.2 mL
CC/C=C\C/C=C\C/C=C\C/C=C\C/C=C\CCCCOC(CC)C(=O)O (centres unmarked) |  | APOE*3Leiden.CETP mice, high-fat/cholesterol diet | dose not given, 20 weeks | relative to: control | plasma MCP-1 change | -30%
C[C@@H](NC(=O)Cc1ccc(Cl)c(SC2C(=O)CC(c3c(Cl)cccc3Cl)CC2=O)c1)c1cccc2ccccc12 (some centres unmarked) |  | C57BL/6 mice, B16-F10 melanoma allograft, tumour | intratumoral, 50 mg/kg daily for 7 days, 6 h after last dose |  | lactate level | decreased

SMILES | assay | system | conditions | scale | quantity | value
C=C(c1ccc(C(=O)O)c(F)c1)c1cc2c(cc1C)C(C)(C)C=CC2(C)C | RNA sequencing, refers to: Alb mRNA | rat, brain | dose not given, 24 h, single dose | relative to: vehicle | log2 fold change | -2.54
Cc1cc(O)c(C=O)c2c1C(=O)Oc1c(CO)c(O)c3c(c1O2)C(O)OC3=O (centres unmarked) | histopathology | rat, male, streptozotocin-induced diabetes, testis | 10 mg/kg, 9 weeks |  | seminiferous epithelium height | 68.9 ± 4.93 µm
CCC1CC2C(C)=CC3C(=O)CCCC3C=CC(C)=CC2C(=O)O1 (centres unmarked) | dot blot | 5XFAD transgenic mouse, hippocampus | oral, 30 mg/kg/day three times per week, 1 month, not significant | relative to: vehicle | total soluble Aβ reduction | 23.6%
COc1ccc(C2CC(c3ccc(C)cc3)=Nc3ccccc3S2)cc1OC (centres unmarked) | oral glucose tolerance test | fasted normal rat, blood | oral, 20 mg/kg, 0 min, added: oral glucose 3 g/kg |  | blood glucose | 101 ± 4.67 mg/dL
O/N=C/c1cnn(-c2ccccc2)n1 | aPTT | human plasma | 10 µM |  | clotting time | 48.5 ± 1 s
CC(=O)c1cnc(N)nc1N1CC[C@H]1c1nn2ccc(Cl)c2c(=O)n1-c1ccccc1 | refers to: IFN-gamma | rat | oral, 10 mg/kg, up to 8 h, added: concanavalin A at 6.5 h |  | inhibition | > 80% and 91%
CCOC(=O)C(Cc1cccc(O)c1)OC(=O)C=Cc1ccc(O)c(O)c1C=Cc1ccc(O)c(O)c1 (centres unmarked) |  | C57 wild-type mice, isoproterenol-induced myocardial ischemia, serum | oral, 10 mg/kg pretreatment for 7 days, added: isoproterenol 3 mg/kg | relative to: normal group | serum LDH level | 123 ± 19%
CCCCOCc1cn(-c2cc(Cl)ccc2Cl)nn1 | prothrombin time | human plasma | 10 µM |  | clotting time | 15.2 ± 0.06 s
C=C1C(=O)OC2C1CCC1(C)OC13CC1OC1(C)C23 (single isomer, unassigned) |  | sarcoma 45, outbred white rat | intraperitoneal, maximum tolerated dose, daily, 5 days |  | tumour growth inhibition | 78 to 88%
CC(=O)[O-].O.O.[O-]c1ccc(Br)cc1C=NCCN1CCOCC1.[Zn+2] | hydroxyl radical scavenging |  | 240 µM |  | inhibition | 54.6%
Cc1cc2c(c(=O)o1)C=C1CCC(C(C)CNCc3ccc(O)cc3)CC1O2 (centres unmarked) |  | 5xFAD mouse, 15-16 months, hippocampal slices | intraperitoneal, 25 mg/kg single dose, 24 h |  | LTP magnitude | increased
CCCCCCCOC(=O)Cc1c(C)n(C(=O)c2ccc(Cl)cc2)c2ccc(OC)cc12 | hot plate test | BALB/c mice | 50 mg/kg, 0 min |  | latency of nociceptive response | 10.1 ± 0.8 s
Cc1ccc(C(=O)Nc2ccc(CP(=O)(O)O)cc2CP(=O)(O)O)cc1NC(=O)c1cccc(NC(=O)Nc2cccc(C(=O)Nc3cc(C(=O)Nc4ccc(CP(=O)(O)O)cc4CP(=O)(O)O)ccc3C)c2)c1 | aPTT | FXI-deficient human plasma | 233 to 467 µM, added: 4.8 nM factor XIa | relative to: untreated | clotting time ratio | 1.11 to 2.72 fold
CCCOC(=O)Cc1c(C)n(C(=O)c2ccc(Cl)cc2)c2ccc(OC)cc12 | hot plate test | BALB/c mice | 50 mg/kg, 30 min |  | latency of nociceptive response | 13.9 ± 1.28 s
Cc1nc(C)c(C=[N+]([O-])C(C)(C)C)nc1C | Western blot, refers to: HO-1 | mouse, MPTP model, substantia nigra nuclei | 90 mg/kg |  | protein level increase | 17.1%
CCCCCCCCCC(=O)OCc1cn(-c2ccc(Cl)cc2)nn1 | plasma recalcification time | human plasma | 1 µM |  | clotting time | 285 ± 20 s
CC(C)(O)c1ncc([S@](N)(=O)=NC(=O)Nc2c3c(cc4c2CCC4)CCC3)s1 | IL-1β release | healthy humans, whole blood ex vivo | plasma concentration, added: LPS |  | EC90 | 1.08 µg/mL (≈ 2.57 µM)
Cc1ccc(N(O)/N=N/c2ccc(S(=O)(=O)Nc3nccs3)cc2)cc1 | paw oedema | rat, carrageenan oedema | oral, 100 mg/kg, 2 h after carrageenan | relative to: vehicle | inhibition | 25.7%
O=S(=O)(c1ccccc1)N(CCc1nnc(S)o1)c1ccccc1 |  | rat | 100 mg/kg, 3 h, added: carrageenan |  | paw edema inhibition | 43.4%
COc1ccc(OC)c(C(=Cc2ccc(O)c(OC)c2)C(=O)NCCc2ccc(O)cc2)c1 | refers to: tyrosine hydroxylase | C57BL mice, MPTP/p Parkinson model, substantia nigra | 75 mg/kg, 8 weeks | relative to: MPTP/p vehicle | TH-positive neuron number | increased

Repeated from above:
SMILES | assay | system | conditions | scale | quantity | value
Cc1cc(O)c(C=O)c2c1C(=O)Oc1c(CO)c(O)c3c(c1O2)C(O)OC3=O (centres unmarked) | histopathology | rat, male, streptozotocin-induced diabetes, testis | 10 mg/kg, 9 weeks |  | seminiferous epithelium height | 68.9 ± 4.93 µm
COc1cc(Cn2ccc3cc(C(=O)NCC45CC6CC(CC(C6)C4)C5)ccc32)ccc1C(=O)NO | immunohistochemistry | 5xFAD mouse, brain | intraperitoneal, 10 mg/kg once daily, 2 months | relative to: vehicle | ASC aggresome size | decreased
